Experimental data pooled from the literature.
Protocols differ between the studies behind these lines. Values joined by “and” are separate records of one study, mostly repeats; a detail may differ. pIC50: −log10 of the molar value.
CYP2D6: Cytochrome P450 2D6 (CYP2D6, Homo sapiens, UniProt P10635)
UniProt P10635, sequence (whole entry, unmodified, looked up): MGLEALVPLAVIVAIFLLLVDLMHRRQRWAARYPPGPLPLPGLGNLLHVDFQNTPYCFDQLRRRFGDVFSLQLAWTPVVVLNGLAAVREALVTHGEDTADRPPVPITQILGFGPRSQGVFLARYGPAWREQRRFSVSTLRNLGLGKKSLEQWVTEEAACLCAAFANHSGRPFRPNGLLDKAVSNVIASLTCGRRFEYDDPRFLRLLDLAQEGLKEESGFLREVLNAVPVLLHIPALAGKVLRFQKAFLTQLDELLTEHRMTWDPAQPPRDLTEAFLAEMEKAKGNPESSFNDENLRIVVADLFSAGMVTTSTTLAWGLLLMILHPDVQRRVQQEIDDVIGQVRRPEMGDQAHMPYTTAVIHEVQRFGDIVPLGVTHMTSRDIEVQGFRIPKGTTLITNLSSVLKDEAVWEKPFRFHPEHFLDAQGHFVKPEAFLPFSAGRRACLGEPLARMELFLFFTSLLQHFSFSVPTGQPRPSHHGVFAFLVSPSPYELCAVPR

N#Cc1ccc([C@H]2CCc3cncn32)c(F)c1
pIC50 (CYP2D6; inhibitor, item: 1'-hydroxylation; pooled human liver microsomes; with: bufuralol 5 µM): > 5.00 and 5.40

Cc1nc(-c2cnc(NC(C)C)n(C)c2=O)ccc1Oc1ccnc(-c2cnn(C)c2)c1
pIC50 (CYP2D6; inhibitor; 30 min, metabolism-dependent, NADPH preincubation): < 4.00

N#C[C@H](C[C@@H]1CCCNC1=O)NC(=O)[C@H](CC1CC1)NC(=O)c1cc2cccc(Cl)c2[nH]1
pIC50 (CYP2D6; enzyme activity, time-dependent inhibitor; human liver microsomes; 30 min NADPH preincubation, with: dextromethorphan O-demethylation): 4.34

Cc1cc(OC2COC2)cc(C(=O)Nc2ccc(F)cn2)n1
pIC50 (CYP2D6; inhibitor): < 4.52

O=C(O)/C=C/c1ccccc1
pIC50 (CYP2D6; enzyme activity, inhibitor): < 3.47

CCC(C)(C)C(=O)O[C@H]1C[C@@H](C)C=C2C=C[C@H](C)[C@H](CC[C@@H](O)C[C@@H](O)CC(=O)O)[C@H]21
pIC50 (CYP2D6; inhibitor; with: substrate AMMC): < 4.00

NC/C(=C\F)COc1cccc(Cn2c(=S)[nH]c(=O)c3[nH]cnc32)c1
pIC50 (CYP2D6; enzyme activity, inhibitor; CYP2D6 screen): < 5.00

CCCCCNC(=N)N/N=C/c1c[nH]c2ccc(OC)cc12
pIC50 (CYP2D6; inhibitor; with: substrate AMMC): 6.47

CN(C/C=C/C#CC(C)(C)C)Cc1cccc2ccccc12
pIC50 (Cytochrome P450 2D6 (CYP2D6, Homo sapiens, UniProt P10635, R296C/S486T/T107I); pH 7.4): 5.77

CCOC(=O)[C@@]12C[C@@H]1[C@@H](n1ccc3c(NC)nc(C#Cc4ccc(Cl)s4)nc31)[C@H](O)[C@@H]2O
pIC50 (CYP2D6; enzyme activity, inhibitor; human liver microsomes; 10 min, pH 7.4, with: dextromethorphan): 4.85

CC(C)(C)S(=O)(=O)c1cc2c(Nc3ccc4scnc4c3)ncnc2cc1OCCOP(=O)(O)O
pIC50 (CYP2D6; inhibitor; human liver microsomes; 30 min, pH 7.4, with: dextromethorphan): 4.10
